Measurements gathered from unrelated publications.
Lines come from different studies, so protocols differ. Numbers after ± are the reported error.
POLB I260M: DNA polymerase beta (POLB, Homo sapiens, UniProt P06746, I260M)
SCTR: Secretin receptor (SCTR, Homo sapiens, UniProt P47872)
UniProt P47872, sequence (whole entry, looked up): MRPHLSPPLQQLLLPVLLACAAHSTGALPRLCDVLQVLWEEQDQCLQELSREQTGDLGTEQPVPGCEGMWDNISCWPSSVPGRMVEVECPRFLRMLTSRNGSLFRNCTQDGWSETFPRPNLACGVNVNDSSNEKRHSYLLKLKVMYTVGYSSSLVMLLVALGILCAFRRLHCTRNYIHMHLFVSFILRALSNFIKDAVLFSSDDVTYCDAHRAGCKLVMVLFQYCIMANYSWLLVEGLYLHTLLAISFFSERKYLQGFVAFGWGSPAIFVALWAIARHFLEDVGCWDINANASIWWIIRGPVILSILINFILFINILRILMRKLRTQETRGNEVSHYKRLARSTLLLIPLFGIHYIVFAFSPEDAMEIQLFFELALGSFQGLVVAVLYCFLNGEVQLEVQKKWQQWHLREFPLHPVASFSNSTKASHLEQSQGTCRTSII
UniProt O75460, sequence (whole entry, looked up): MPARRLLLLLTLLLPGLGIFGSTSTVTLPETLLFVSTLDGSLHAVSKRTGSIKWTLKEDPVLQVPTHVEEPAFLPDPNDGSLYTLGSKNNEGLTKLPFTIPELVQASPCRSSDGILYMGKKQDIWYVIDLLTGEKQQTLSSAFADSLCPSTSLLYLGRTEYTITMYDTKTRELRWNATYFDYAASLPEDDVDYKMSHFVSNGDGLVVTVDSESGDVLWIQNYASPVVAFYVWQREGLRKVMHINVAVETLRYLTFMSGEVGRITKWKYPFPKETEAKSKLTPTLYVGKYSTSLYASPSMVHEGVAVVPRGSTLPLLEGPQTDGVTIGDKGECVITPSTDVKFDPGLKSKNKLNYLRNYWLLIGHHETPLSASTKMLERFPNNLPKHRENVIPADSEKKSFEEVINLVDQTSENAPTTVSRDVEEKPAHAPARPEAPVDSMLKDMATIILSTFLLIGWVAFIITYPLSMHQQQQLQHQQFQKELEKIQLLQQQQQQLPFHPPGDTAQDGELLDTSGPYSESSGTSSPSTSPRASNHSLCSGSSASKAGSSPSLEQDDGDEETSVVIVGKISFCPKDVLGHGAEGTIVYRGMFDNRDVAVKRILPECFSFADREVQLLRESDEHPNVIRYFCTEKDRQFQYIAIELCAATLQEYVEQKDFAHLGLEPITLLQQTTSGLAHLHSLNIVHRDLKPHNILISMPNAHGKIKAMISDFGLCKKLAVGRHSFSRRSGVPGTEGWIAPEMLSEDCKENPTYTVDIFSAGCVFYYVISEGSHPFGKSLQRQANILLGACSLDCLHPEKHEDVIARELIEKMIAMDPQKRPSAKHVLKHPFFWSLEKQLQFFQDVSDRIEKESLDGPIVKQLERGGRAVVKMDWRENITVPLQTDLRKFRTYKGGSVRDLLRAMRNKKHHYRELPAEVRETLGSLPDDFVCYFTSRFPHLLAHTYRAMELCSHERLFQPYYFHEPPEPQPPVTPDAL
UniProt Q7L0J3, sequence (whole entry, looked up): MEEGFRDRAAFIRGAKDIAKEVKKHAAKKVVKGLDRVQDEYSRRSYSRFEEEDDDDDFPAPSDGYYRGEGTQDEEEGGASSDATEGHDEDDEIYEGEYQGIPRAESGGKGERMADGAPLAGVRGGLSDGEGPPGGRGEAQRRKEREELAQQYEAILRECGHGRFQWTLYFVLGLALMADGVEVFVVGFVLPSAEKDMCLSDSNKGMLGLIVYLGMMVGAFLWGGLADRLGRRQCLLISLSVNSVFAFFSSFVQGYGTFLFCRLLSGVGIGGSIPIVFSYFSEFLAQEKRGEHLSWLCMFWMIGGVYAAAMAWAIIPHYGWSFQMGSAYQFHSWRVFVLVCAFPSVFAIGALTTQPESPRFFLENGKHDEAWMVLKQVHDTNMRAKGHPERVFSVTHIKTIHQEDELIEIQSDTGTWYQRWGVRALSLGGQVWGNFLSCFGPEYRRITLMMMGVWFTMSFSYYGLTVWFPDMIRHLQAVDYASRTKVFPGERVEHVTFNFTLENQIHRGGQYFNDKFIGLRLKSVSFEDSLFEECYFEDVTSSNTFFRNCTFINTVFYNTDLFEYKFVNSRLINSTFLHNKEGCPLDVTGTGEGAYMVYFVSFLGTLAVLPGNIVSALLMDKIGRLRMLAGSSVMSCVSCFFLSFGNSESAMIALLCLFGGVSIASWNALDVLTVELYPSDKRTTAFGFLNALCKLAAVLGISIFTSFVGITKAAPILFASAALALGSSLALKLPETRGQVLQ
UniProt P35968, sequence (whole entry, looked up): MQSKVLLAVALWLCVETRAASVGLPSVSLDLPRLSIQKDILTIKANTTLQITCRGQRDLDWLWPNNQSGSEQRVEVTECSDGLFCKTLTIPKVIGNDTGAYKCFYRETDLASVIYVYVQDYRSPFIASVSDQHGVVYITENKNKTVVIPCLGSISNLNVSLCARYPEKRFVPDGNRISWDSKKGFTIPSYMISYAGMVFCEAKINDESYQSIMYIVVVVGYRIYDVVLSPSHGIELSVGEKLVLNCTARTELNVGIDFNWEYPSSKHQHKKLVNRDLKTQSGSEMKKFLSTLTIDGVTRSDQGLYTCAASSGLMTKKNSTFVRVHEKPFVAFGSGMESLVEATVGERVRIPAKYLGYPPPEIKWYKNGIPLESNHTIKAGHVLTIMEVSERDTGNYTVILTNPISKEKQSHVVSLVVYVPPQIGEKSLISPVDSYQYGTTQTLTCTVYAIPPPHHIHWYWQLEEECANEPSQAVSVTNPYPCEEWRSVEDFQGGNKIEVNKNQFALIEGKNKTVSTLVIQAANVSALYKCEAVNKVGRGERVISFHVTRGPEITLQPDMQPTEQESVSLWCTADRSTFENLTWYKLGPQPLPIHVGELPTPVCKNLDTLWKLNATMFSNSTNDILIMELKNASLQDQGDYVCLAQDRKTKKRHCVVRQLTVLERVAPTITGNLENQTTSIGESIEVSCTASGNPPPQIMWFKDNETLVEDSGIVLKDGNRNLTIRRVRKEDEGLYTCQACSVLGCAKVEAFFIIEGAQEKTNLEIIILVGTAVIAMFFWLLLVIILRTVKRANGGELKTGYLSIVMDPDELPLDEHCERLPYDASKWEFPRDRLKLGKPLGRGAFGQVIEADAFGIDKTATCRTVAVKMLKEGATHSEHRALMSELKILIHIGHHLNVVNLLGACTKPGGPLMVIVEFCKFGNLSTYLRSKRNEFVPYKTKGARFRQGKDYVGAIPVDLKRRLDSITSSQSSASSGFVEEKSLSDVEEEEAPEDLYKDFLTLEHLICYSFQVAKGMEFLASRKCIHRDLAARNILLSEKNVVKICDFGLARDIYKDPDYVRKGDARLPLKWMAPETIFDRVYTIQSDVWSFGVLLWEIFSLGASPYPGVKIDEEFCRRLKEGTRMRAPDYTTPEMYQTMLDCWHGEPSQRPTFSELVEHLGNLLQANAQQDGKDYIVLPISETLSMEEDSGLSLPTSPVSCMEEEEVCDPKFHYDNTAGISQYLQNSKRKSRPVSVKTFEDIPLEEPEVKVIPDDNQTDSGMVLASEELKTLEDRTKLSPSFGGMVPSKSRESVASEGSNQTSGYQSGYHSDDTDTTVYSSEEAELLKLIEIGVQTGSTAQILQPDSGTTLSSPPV
UniProt O95931, sequence (whole entry, looked up): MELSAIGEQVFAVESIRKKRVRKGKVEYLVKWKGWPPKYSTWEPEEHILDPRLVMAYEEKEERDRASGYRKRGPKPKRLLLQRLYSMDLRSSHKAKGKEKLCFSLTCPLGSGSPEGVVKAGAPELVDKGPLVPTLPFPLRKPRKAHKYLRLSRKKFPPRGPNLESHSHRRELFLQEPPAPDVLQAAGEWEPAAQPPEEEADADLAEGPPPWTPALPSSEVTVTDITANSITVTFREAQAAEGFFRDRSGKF

For `O=C(N[C@@H](Cc1ccc(OCCCCC2CCNCC2)cc1)C(=O)O)c1nc2ccccc2o1.O=C(O)C(F)(F)F`, “concentration for occupancy” read 688 nM (Integrin alpha-IIb/beta-3 (Homo sapiens, UniProt P05106+P08514); ODE model; human, diluted whole blood; 50% occupancy, dilution 1:1).
`Cc1cn([C@H]2C[C@H](O)[C@@H](COP(=O)(O)OP(=O)(O)C(Br)(Br)P(=O)(O)O)O2)c(=O)[nH]c1=O` has a kpol of 0.19 ± 0.01 s⁻¹ (POLB I260M; nucleotide incorporation rate, substrate, single-turnover kinetics; single-nucleotide gapped DNA; 37 °C, I260M, correct incorporation, added: dTTP opposite template A).
`COC(=O)CN1CCCc2cc3cc(C(=O)NC(Cc4ccc(C)cc4)C(=O)NCC=CS(=O)(=O)c4ccccc4)c(=O)oc3cc21` (centres unmarked) has a remaining activity of 52% (Procathepsin L (CTSL, Homo sapiens, UniProt P07711); enzyme activity, inhibitor; 5 µM, 60 min, added: Z-Phe-Arg-pNA; baseline: uninhibited control).
For `Cc1cn(C2CC(O)C(COP(=O)(O)OP(=O)(O)C(Cl)P(=O)(O)O)O2)c(=O)[nH]c1=O` (mixture of isomers), the kpol/Kd was 60000 ± 20000 M⁻¹ s⁻¹ (POLB I260M; substrate, single turnover kinetics).
For `Oc1c(C(Nc2nccs2)c2ccccc2OCc2ccccc2)ccc2cccnc12` (centres unmarked), the Hill slope was 1.21 ± 0.11 (Genome polyprotein, NS2B-NS3 protease (Dengue virus type 2, UniProt P14340); enzyme activity, inhibitor; no CHAPS, added: Bz-Nle-Lys-Arg-Arg-AMC substrate).
`NC(=O)C1CCNC(=O)C(Cc2ccc([N+](=O)[O-])cc2)NC(=O)C(Cc2ccco2)NC(=O)C(CC2CC2)NC(=O)C=CC(=O)N1` (centres unmarked) gave an enrichment factor of 1.6 (KDR (Homo sapiens, UniProt P35968); DNA-templated library selection; one selection round).
`N[C@H]1CC[C@H](Nc2nccc(-c3cccnc3Oc3ccc(NS(=O)(=O)CCC(F)(F)F)c(F)c3)n2)CC1` — result for RNase activity: “inhibited” (ERN1 (Homo sapiens, UniProt O75460); inhibitor; concentration not given, added: XBP1 mini-substrate).
`Nc1nc2c(ncn2[C@H]2C[C@H](O)[C@@H](COP(=O)(O)OP(=O)(O)[C@@H](F)P(=O)(O)O)O2)c(=O)[nH]1` has a kpol of 0.16 ± 0.01 s⁻¹ (DNA polymerase beta (POLB, Homo sapiens, UniProt P06746); substrate, quench-flow kinetics; pH 8.0, 37 °C, misincorporation opposite T in gapped DNA).
`CCCCCCCC/C=C\CCCCCCCC(=O)O[C@@H]1C=CCO[C@@H]1COP(=O)(O)S` (some centres unmarked) gave an Emax of 39% (LPAR2 (Homo sapiens, UniProt Q9HBW0); agonist, TGFα shedding).
Under “competition of probe pulldown”, `CCN(CCCC[C@H](NC(=O)[C@H](Cc1ccc(OC)c(OC)c1)NC(=O)[C@H](C)NC(=O)[C@H](CC1CCCCC1)NC(=O)c1ccc(Br)c(N)c1)C(=O)N[C@@H](CO)C(=O)OC)C(C)C` is recorded as “inhibited” (Chromobox protein homolog 7 (Homo sapiens, UniProt O95931); binding; HEK-293T cell lysate; concentration not given).
For `COc1ccc(-c2cc(C(F)(F)F)nc(SCC(=O)N(C)c3ccccc3)n2)cc1OC`, the Emax was 160 ± 24% (SCTR; increase of tracer binding, TR-FRET; HEK293 membranes; added: Fluo-Sec 6 nM).
For `Cc1cc(=O)oc2c(F)c(OP(=O)(O)O)c(F)cc12`, the kcat was 83.1 ± 2.72 s⁻¹ (PTPN11 (Homo sapiens, UniProt Q06124); substrate; fully activated enzyme).
With `[3H]C([3H])([3H])c1cnccc1CN1C[C@@H](c2cc(F)c(F)c(F)c2)CC1=O` the Bmax was 0.18 pmol/mg (SV2A (Homo sapiens, UniProt Q7L0J3); radioligand binding, saturation binding; human Alzheimer disease, pooled frontal cortex homogenate).
For `COc1ccccc1-c1cc(C(F)(F)F)nc(S(=O)(=O)CCCC(=O)Nc2ccn(Cc3ccc(C)cc3)n2)n1`, the Emax was 147 ± 30% (SCTR; increase of tracer binding, TR-FRET; HEK293 membranes; added: Fluo-Sec 6 nM).
